Published values from different studies.
Numbered parts are unrelated; each lists some results of a single study. Several values in a cell are separate wells, animals, samples, runs or records.
Chain of UniProt P11802 (whole entry, looked up): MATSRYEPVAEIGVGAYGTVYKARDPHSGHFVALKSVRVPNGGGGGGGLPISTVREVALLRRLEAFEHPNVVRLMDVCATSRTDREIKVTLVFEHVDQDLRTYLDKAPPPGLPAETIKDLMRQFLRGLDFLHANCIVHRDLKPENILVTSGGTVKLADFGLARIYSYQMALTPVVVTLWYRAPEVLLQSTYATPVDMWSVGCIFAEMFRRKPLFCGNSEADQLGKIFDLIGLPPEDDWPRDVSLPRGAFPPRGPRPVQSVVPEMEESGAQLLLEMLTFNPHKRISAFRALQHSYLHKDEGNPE
Chain of UniProt O96017 (whole entry, looked up): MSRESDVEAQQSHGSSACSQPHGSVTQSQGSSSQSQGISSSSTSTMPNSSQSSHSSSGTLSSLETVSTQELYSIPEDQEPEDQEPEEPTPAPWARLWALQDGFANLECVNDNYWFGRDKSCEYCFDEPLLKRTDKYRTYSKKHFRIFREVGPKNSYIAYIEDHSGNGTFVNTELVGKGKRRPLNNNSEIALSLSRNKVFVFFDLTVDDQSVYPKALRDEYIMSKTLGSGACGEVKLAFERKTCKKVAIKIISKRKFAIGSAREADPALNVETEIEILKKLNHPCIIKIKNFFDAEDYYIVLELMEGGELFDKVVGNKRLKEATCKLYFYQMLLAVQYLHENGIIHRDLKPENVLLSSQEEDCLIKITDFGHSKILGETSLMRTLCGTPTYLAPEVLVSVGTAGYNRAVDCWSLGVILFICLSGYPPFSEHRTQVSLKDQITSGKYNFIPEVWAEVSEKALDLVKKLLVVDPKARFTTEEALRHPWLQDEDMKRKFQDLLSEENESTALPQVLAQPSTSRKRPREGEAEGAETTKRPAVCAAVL
Chain of UniProt O14920 (whole entry, looked up): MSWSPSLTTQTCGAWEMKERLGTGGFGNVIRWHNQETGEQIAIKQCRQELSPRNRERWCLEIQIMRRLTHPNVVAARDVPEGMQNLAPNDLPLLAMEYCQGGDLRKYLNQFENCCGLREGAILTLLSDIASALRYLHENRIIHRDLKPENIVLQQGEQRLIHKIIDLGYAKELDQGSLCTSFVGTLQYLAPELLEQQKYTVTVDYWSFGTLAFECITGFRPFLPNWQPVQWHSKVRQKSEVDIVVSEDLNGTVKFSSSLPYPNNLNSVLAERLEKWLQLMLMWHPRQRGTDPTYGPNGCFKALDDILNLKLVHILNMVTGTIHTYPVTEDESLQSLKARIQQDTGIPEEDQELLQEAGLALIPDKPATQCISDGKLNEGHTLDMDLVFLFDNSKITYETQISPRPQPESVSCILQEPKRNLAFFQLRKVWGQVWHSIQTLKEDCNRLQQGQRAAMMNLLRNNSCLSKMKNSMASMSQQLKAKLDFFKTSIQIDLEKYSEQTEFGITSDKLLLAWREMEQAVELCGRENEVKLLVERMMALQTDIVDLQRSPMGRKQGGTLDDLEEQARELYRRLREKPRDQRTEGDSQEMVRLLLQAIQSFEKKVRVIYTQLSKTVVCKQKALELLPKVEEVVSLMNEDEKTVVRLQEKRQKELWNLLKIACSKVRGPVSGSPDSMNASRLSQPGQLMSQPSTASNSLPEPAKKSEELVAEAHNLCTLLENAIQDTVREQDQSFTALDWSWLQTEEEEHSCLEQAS
Chain of UniProt Q86YV6 (whole entry, looked up): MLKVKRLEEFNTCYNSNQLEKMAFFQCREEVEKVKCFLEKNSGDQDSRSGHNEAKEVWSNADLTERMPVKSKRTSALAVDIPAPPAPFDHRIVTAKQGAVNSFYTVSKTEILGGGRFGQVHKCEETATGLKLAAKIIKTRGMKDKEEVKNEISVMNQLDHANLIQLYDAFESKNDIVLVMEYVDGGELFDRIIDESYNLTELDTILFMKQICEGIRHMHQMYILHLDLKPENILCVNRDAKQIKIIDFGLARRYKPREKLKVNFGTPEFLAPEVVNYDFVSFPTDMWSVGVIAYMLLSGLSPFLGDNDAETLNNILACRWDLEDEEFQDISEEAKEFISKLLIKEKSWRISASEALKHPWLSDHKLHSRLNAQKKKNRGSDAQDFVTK
Chain of UniProt P45984 (whole entry, looked up): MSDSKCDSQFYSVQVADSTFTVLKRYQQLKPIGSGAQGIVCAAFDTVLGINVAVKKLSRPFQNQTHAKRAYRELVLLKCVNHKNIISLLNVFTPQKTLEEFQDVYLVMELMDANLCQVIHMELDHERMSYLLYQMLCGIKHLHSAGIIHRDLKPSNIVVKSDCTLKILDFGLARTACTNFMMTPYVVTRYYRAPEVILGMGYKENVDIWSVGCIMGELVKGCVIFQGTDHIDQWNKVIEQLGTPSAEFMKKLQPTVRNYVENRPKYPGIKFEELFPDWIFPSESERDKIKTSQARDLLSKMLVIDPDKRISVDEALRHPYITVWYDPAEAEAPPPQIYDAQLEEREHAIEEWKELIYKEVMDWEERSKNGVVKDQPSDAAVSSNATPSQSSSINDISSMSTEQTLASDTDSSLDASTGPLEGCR
Chain of UniProt Q13523 (whole entry, looked up): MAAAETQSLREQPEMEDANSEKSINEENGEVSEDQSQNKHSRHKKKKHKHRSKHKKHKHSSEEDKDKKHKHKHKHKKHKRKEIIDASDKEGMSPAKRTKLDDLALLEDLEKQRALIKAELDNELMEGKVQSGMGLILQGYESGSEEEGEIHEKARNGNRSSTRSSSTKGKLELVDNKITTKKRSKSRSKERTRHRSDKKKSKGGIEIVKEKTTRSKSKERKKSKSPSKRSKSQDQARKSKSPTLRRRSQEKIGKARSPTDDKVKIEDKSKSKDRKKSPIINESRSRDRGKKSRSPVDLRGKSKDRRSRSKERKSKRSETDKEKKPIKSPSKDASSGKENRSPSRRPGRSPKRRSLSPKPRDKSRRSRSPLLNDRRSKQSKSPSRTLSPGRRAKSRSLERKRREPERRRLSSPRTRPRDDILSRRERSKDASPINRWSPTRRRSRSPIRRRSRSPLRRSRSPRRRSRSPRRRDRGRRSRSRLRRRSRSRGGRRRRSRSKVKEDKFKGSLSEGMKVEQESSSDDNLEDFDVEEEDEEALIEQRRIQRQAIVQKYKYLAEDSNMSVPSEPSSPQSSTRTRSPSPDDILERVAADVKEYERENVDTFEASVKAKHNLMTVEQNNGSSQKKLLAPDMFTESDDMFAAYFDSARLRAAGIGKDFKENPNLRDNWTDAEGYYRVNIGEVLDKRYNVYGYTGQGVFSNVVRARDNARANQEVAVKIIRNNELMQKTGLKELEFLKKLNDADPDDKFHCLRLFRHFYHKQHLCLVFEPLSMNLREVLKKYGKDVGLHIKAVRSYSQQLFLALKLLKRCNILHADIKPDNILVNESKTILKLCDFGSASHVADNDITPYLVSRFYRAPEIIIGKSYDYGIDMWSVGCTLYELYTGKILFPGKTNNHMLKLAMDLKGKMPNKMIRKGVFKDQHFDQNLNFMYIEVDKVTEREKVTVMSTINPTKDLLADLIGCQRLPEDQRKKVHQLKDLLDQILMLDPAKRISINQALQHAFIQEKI
Chain of UniProt Q16288 (whole entry, looked up): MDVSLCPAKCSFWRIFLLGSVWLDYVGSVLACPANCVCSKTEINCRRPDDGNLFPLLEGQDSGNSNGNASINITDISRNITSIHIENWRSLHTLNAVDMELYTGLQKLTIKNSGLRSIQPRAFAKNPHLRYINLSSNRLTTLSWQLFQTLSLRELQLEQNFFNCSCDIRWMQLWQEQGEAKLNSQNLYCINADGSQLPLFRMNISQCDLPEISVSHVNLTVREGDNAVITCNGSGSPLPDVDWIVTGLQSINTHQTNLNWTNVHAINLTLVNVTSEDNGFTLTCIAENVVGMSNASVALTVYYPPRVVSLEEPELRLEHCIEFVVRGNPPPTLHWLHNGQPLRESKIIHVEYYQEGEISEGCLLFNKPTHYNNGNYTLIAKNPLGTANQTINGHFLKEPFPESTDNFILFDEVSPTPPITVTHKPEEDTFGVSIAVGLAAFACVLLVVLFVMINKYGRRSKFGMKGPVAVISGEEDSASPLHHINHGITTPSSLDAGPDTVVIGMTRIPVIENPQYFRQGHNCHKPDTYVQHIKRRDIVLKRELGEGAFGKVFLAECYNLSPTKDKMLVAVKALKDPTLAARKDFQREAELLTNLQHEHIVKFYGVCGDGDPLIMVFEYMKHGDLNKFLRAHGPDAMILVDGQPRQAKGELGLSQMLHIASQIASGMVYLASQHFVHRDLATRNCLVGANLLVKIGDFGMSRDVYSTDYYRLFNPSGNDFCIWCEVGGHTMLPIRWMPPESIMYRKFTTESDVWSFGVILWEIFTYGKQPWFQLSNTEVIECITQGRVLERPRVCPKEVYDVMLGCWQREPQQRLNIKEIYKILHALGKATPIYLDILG
Chain of UniProt P05771 (whole entry, looked up): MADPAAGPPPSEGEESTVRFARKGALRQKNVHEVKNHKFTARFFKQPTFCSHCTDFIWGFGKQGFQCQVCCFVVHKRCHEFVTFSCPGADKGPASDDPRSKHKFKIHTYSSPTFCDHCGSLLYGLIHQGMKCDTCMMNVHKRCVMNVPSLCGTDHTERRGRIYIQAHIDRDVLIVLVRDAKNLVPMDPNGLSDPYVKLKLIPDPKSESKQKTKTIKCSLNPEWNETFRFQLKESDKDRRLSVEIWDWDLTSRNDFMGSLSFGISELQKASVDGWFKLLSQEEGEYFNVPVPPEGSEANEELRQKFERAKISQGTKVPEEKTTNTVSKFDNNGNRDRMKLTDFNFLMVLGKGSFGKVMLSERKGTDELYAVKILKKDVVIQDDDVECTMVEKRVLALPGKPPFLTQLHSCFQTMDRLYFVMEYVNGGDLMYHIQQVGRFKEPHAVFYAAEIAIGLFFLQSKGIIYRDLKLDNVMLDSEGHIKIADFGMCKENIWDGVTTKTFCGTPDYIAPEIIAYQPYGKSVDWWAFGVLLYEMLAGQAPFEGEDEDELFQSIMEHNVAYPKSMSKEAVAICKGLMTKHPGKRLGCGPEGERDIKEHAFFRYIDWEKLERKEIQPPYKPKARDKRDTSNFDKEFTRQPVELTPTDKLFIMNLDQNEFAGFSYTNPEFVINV

Set 1
Compound: Cc1cncc2cccc(S(=O)(=O)N3CCCN(C(=O)CN)C[C@@H]3C)c12
Effect on: enzyme activity
Action: inhibitor
Tested at: 0.5 µM
Reference: control
| target | remaining activity |
| --- | --- |
| MAP3K3 (Homo sapiens, UniProt Q99759) | 99.1% |
| STK39 (Homo sapiens, UniProt Q9UEW8) | 95.3% |
| DAPK1 (Homo sapiens, UniProt P53355) | 97.9% |
| GRK3 (Homo sapiens, UniProt P35626) | 95% |
| Cyclin-dependent kinase 4, with cyclin D1 (CDK4, Homo sapiens, UniProt P11802) | 114% |
| MAPK9 (Homo sapiens, UniProt P45984) | 106% |
| STK11 (Homo sapiens, UniProt Q15831) | 86.5% |
| OXSR1 (Homo sapiens, UniProt O95747) | 99.4% |
| CAMK2D (Homo sapiens, UniProt Q13557) | 108% |
| Tyrosine-protein kinase Lyn, isoform B (LYN, Homo sapiens, UniProt P07948) | 101% |
| Cyclin-dependent kinase 5, with p25 (CDK5, Homo sapiens, UniProt Q00535) | 94.1% |
| NEK2 (Homo sapiens, UniProt P51955) | 105% |
| IKBKB (Homo sapiens, UniProt O14920) | 109% |
| Protein kinase C beta type, isoform beta-I (PRKCB, Homo sapiens, UniProt P05771) | 99.4% |

Set 2
SMILES: C[C@H](c1ccnc(Nc2nc3ccc(-c4cc(N(C)C)ncn4)cc3[nH]2)c1)N1CCN(C(=O)CC(F)(F)F)CC1
Tested at: 0.1 µM
| target | effect on | technique | remaining binding [%] |
| --- | --- | --- | --- |
| FLT3 (Homo sapiens, UniProt P36888, R834Q) | cell-free assay | competition with immobilised ligand | 100 |
| RAF1 (Homo sapiens, UniProt P04049) | cell-free assay | competition with immobilised ligand | 97 |
| Ribosomal protein S6 kinase alpha-3, N-terminal kinase domain (RPS6KA3, Homo sapiens, UniProt P51812) | cell-free assay | competition with immobilised ligand | 100 |
| MYLK4 (Homo sapiens, UniProt Q86YV6) | cell-free assay | competition with immobilised ligand | 100 |
| MAPK13 (Homo sapiens, UniProt O15264) | cell-free assay | competition with immobilised ligand | 80 |
| PIK3CA (Homo sapiens, UniProt P42336, E545A) | cell-free assay | competition with immobilised ligand | 100 |
| CLK4 (Homo sapiens, UniProt Q9HAZ1) | cell-free assay | competition with immobilised ligand | 82 |
| PRPF4B (Homo sapiens, UniProt Q13523) | cell-free assay | competition with immobilised ligand | 80 |
| MAPK15 (Homo sapiens, UniProt Q8TD08) | cell-free assay | competition with immobilised ligand | 100 |
| AAK1 (Homo sapiens, UniProt Q2M2I8) | binding | – | 60 |
| CHEK2 (Homo sapiens, UniProt O96017) | cell-free assay | competition with immobilised ligand | 84 |
| NTRK3 (Homo sapiens, UniProt Q16288) | cell-free assay | competition with immobilised ligand | 100 |
| Cyclin-dependent kinase 4, with cyclin D1 (CDK4, Homo sapiens, UniProt P11802) | cell-free assay | competition with immobilised ligand | 100 |
| PIM3 (Homo sapiens, UniProt Q86V86) | cell-free assay | competition with immobilised ligand | 87 |
| Tyrosine-protein kinase ABL1, non-phosphorylated (ABL1, Homo sapiens, UniProt P00519, H396P) | cell-free assay | competition with immobilised ligand | 79 |
| MAP3K14 (Homo sapiens, UniProt Q99558) | cell-free assay | competition with immobilised ligand | 100 |

Set 3
Cell line: HaCaT
Tested at: 100 µM
Time: 36 h
| Structure (SMILES) | viability |
| --- | --- |
| CCCOc1ccc(C(=O)OCCN(CC)CC)cc1N | 88.4% |
| CN(C)CCc1c[nH]c2ccc(CS(=O)(=O)N3CCCC3)cc12 | 57.4% |
| CCC(C)n1ncn(-c2ccc(N3CCN(c4ccc(OC[C@H]5CO[C@](Cn6cncn6)(c6ccc(Cl)cc6Cl)O5)cc4)CC3)cc2)c1=O (mixture of isomers) | 81.8% |
| C[N+](C)(C)CCO | 92.1% |
| CC(C(=O)O)c1ccc(-c2ccccc2)c(F)c1 (stereo not shown) | 89.8% |
| C#C[C@]1(O)CC[C@H]2[C@@H]3CCC4=C(CCC(=O)C4)[C@H]3CC[C@@]21C | 95.3% |
| O=C1O[C@H]([C@@H](O)CO)C(O)=C1O | 90.8% |
| O=C(C[S+]([O-])Cc1ccco1)NC/C=C\COc1cc(CN2CCCCC2)ccn1 (stereo not shown) | 100% |

Mixed results
| Structure (SMILES) | target or system | assay | test system | conditions | scale | enzyme activity |
| --- | --- | --- | --- | --- | --- | --- |
| Cc1cccc(/C=N/Nc2cc(N3CCOCC3)nc(OCCc3ccccn3)n2)c1 | L444P/L444P Gaucher fibroblasts | 4-MUG hydrolysis in lysate | – | 0.5 µM, 72 h, without ISRIB | reference: vehicle | 166% and 157% and 153% and 181% and 189% and 161% and 158% and 162% |
| O=C(COc1ccc(Cl)cc1)NC1CCC(NC(=O)COc2ccc(Cl)cc2)CC1 (stereo not shown) | alpha-galactosidase (human) | – | healthy dermal fibroblasts | concentration not given | reference: DMSO | 125% and 133% and 109% and 115% and 122% |
